# Literature values that unrelated publications cite.
# Several values in a cell are separate wells, animals, samples, runs or records. Numbers after ± are the reported error.
Compound,target,assay,system,setting,IC50
COc1ccc(C(=O)NC2CCN(c3nccc(Nc4ccc(F)cc4)n3)CC2)cc1,CDK2,"enzyme activity, inhibitor",,,54.3 nM
N=C(N)NCCC[C@@H]1NC(=O)C[C@H]2NC(=O)[C@H](CNC(=O)[C@H](CC(=O)O)NC(=O)CNC1=O)N(Cc1ccccc1)C2=O,integrin αVβ5,"binding, competitive binding",,with: biotinylated vitronectin,149 ± 25 nM
O=C(O)c1cc(-c2ccc(C3CC4CC3CN4)cc2)c2ccc(-c3ccc(C(F)(F)F)cc3)cc2c1 (stereo not drawn),P2Y14 receptor,antagonist,,,3.11 nM
C[C@H](N)[C@H]1O[C@@H](O[C@@H]2[C@@H](O)[C@H](N)C[C@H](N)[C@H]2O[C@H]2O[C@H]([C@@H](C)O)[C@@H](O)[C@H](O)[C@H]2N)[C@H](O)[C@@H]1O,rabbit ribosome,"translation, inhibitor, refers to: firefly luciferase",rabbit reticulocyte lysate,,1500 ± 80 nM
CC(C)C[C@@H](CN[C@@H](Cc1ccc(Cl)cc1)C(N)=O)NC(=O)[C@H](Cc1c[nH]cn1)NC(=O)CNC(=O)[C@@H](NC(=O)[C@H](C)NC(=O)[C@H](Cc1c[nH]c2ccccc12)NC(=O)[C@H](CCC(N)=O)NC(=O)[C@H](N)Cc1ccccc1)C(C)C,mouse GRP receptor,binding,,literature species comparison,4.9 ± 0.8 nM
N[C@@H](Cc1c[nH]c2ccc(OCc3ccccc3)cc12)C(=O)O,LAT1,His antiport,proteoliposomes,with: [3H]-histidine,1480 nM
Oc1ccc(Cl)cc1/C=N/c1nc(-c2ccccc2)cs1,beta-glucuronidase (bovine liver),,,,5630 nM
CCc1ccc(CCNC(=O)c2c(O)c(O)cc3c(O)c(-c4c(C)cc5c(C(=O)NCCc6ccc(CC)cc6)c(O)c(O)cc5c4O)c(C)cc23)cc1,Bfl-1 (human),"binding, fluorescence polarization",,with: fluorescent BH3 Bid peptide,~1000 nM
O=C(O[C@@H]1Cc2c(O)cc(O)cc2O[C@@H]1c1cc(O)c(O)c(O)c1)c1cc(O)c(O)c(O)c1,PARP16 (GST-tagged),"enzyme activity, inhibitor",,,14500 nM
Cc1cc(C)c(CNC(=O)c2c(O)c(O)cc3c(O)c(-c4c(C)cc5c(C(=O)NCc6c(C)cc(C)cc6C)c(O)c(O)cc5c4O)c(C)cc23)c(C)c1,Bcl-xL (human),"binding, fluorescence polarization",,with: fluorescent BH3 Bid peptide,~1000 nM
N#Cc1cccc(-c2c[nH]c3ncnc(N4CCOCC4)c23)c1,LRRK2,,,,25 nM
COc1cc(N2CCNCC2)ccc1Nc1cc(N2CCC[C@H](C(=O)NCc3ccc(OC(F)(F)F)cc3)C2)ccn1,ROS1 G2032R,cell-based,,,105 nM
COc1cncc(-c2cccc([C@]3(C)CC(=O)N(C)C(N)=N3)c2)c1,BACE1,inhibitor,,,80 nM
Cc1ccc(/C=C(/NC(=O)c2ccccc2)C(=O)Nc2ccc(S(N)(=O)=O)cc2)o1,carbonic anhydrase IX,"enzyme activity, inhibitor",,,8.3 nM
CCCCCCCCCCCCCC(=O)N[C@@H](CO)C(=O)N[C@H](C(=O)N[C@@H](Cc1ccc(O)cc1)C(=O)N[C@@H](CCCNC(=N)N)C(=O)N[C@@H](CCCNC(=N)N)C(=O)NCC(=O)N[C@@H](C)C(=O)N[C@@H](CCCNC(=N)N)C(=O)N[C@@H](CCCNC(=N)N)C(=O)N[C@@H](Cc1c[nH]c2ccccc12)C(=O)N[C@@H](CCCNC(=N)N)C(=O)N[C@@H](CCCCN)C(=O)N[C@@H](CC(C)C)C(=O)O)[C@@H](C)CC,PKMζ,"AMPA receptor response potentiation, inhibitor, bath application",hippocampal slice CA1 pyramidal cells,,~1000 nM
OC1CCCC1n1cc(-c2cnn3ccc(N4CCC[C@@H]4c4cc(F)ccc4F)nc23)cn1 (stereo partly drawn),TRKA wild type,inhibitor,,,4.4 nM
COc1ccc(CC(=O)Nc2cccc(-c3nc4ccccc4o3)c2)cc1,P2Y14 receptor,antagonist,,,2 nM
O=C(Nc1cccc(-c2nc3ncccc3o2)c1)c1cccc(F)c1,Plasmodium falciparum ENT1,[3H]adenosine uptake,PfENT1-expressing yeast,,9.6 ± 7.4 nM
NS(=O)(=O)Oc1ccc2c3c(c(=O)oc2c1)CCCCCC3,steroid sulfatase,,placental microsomes,,30 nM
Cc1nn(-c2ccc(S(N)(=O)=O)cc2)c(C)c1-c1nnc(SCC(=NO)c2ccccc2)n1-c1ccccc1,cyclooxygenase-1,inhibitor,,,9810 nM
COc1ccc(C2CC(c3ccc(Nc4ccnc5cc(Cl)ccc45)cc3)=NN2c2nc(C)cs2)cc1OC (stereo not drawn),HER2,,,,80 nM
O=C(Nc1ccc(-c2nnc(-c3ccco3)o2)cc1)c1ccco1,Plasmodium falciparum ENT1,[3H]adenosine uptake,PfENT1-expressing yeast,,13.7 ± 7.5 nM
CCc1ccccc1NC(=O)CSc1nnc(C2CCN(C(=O)Nc3ccccc3)CC2)o1,15-lipoxygenase,inhibitor,,,7150 ± 260 nM
CCc1ccc(Cn2cc(-c3cc(-c4ccc(Br)cc4)nc(N)n3)c3ccccc32)cc1,c-MET,inhibitor,,,595 nM
O=C(NO)c1ccc(NC(=O)[C@@H](NC(=O)c2ccc3ccccc3c2)c2ccccc2)cc1,HDAC,enzyme activity,HeLa nuclear extract,,14.3 nM
Cc1onc(-c2ccc(Cl)o2)c1-c1ccccc1,COX-1,,,,1900 nM
COc1cc(F)c(C(C)C)cc1C1=C(CN2C(=O)O[C@H](c3cc(C(F)(F)F)cc(C(F)(F)F)c3)[C@@H]2C)CC(C)(C)CC1,CETP,"ex vivo CETP activity, inhibitor",dyslipidemic hamster,single dose 0.1 to 30 mg/kg,31.4 nM
CC1=NN(c2nc(-c3ccc(Cl)cc3)cs2)C(c2ccc(F)cc2)C1 (stereo not drawn),EGFR,"kinase activity, inhibitor",,,60 nM
C=C1C(=O)N[C@@H](C)C(=O)N(C)[C@@H](C)C(=O)N[C@@H]([C@H](OC(=O)[C@@H](NC(C)=O)[C@H](O)C(C)C)C(C)C)C(=O)N(C)[C@@H]([C@@H](C)OC)C(=O)O[C@H](C)[C@H](NC(C)=O)C(=O)O[C@H](Cc2ccccc2)C(=O)N1C,Gαq/11,inhibitor,CHO M1 receptor expressing,,95 nM
Oc1c2cc3c(nc2nn1-c1ccccc1)CCC/C3=N\Nc1ccccc1,c-Met kinase,inhibitor,,,0.92 nM
Cc1ccc(C(=O)[C@]23C(=O)OC(=O)[C@@]2(C)N(C)[C@@]2(c4ccccc4)Sc4ccccc4[C@@H]32)cc1,Leishmania mexicana cysteine protease,inhibitor,,,3700 nM
OC[C@H]1O[C@@H](OCc2cn([C@H]3[C@H](O)[C@@H](O)[C@H](c4cn([C@H]5[C@H](O)[C@@H](O)[C@H](n6cc([C@@H]7O[C@H](CO)[C@@H](n8cc(CO[C@@H]9O[C@H](CO)[C@H](O)[C@H](O)[C@H]9O)nn8)[C@H](O)[C@H]7O)nn6)O[C@@H]5CO)nn4)O[C@@H]3CO)nn2)[C@H](O)[C@@H](O)[C@H]1O,LecA (Pseudomonas aeruginosa),ELISA,,,2.7 nM
CCCCCCCCCc1nc2cc(Cl)ccc2c(=O)n1CCCN,"PqsR, Pseudomonas aeruginosa",inhibitor,,,15000 nM and 15500 nM
CCCC[C@H]1C(=O)NCC(=O)N[C@@H](CC(=O)O)C(=O)N[C@@H](C(C)C)C(=O)N(C)[C@@H](Cc2ccccc2)C(=O)N[C@@H](Cc2ccc(O)cc2)C(=O)N(C)CC(=O)N[C@@H](Cc2c[nH]c3ccccc23)C(=O)N[C@@H](Cc2ccc(O)cc2)C(=O)N[C@@H](CC(C)C)C(=O)N[C@H](C(=O)NCC(N)=O)CSCC(=O)N[C@@H](Cc2ccccc2)C(=O)N(C)[C@@H](Cc2ccccc2)C(=O)N1C,PD-L1,,,BMS patent value,14 nM
CNc1nc(C)c(C(=O)/C=C/c2ccc(O)cc2)s1,EGFR tyrosine kinase,inhibitor,,,33 nM
CSCC[C@@H]1NC(=O)CNC(=O)[C@H](C(C)C)NC(=O)[C@H](CC(N)=O)NC(=O)[C@H](CCC(=O)O)NC(=O)[C@H](Cc2ccc(O)cc2)NC(=O)[C@H](CC(C)C)NC(=O)[C@H](CCC(=O)O)NC(=O)CSC[C@@H](C(N)=O)NC(=O)[C@H](Cc2ccc(O)cc2)NC1=O,GRB2 SH2 domain,"binding, surface plasmon resonance",,,15000 to 20000 nM

# For quick reference, copied from above:
Compound,target,assay,system,setting,IC50
CC1=NN(c2nc(-c3ccc(Cl)cc3)cs2)C(c2ccc(F)cc2)C1 (stereo not drawn),EGFR,"kinase activity, inhibitor",,,60 nM
O=C(O[C@@H]1Cc2c(O)cc(O)cc2O[C@@H]1c1cc(O)c(O)c(O)c1)c1cc(O)c(O)c(O)c1,PARP16 (GST-tagged),"enzyme activity, inhibitor",,,14500 nM
C[C@H](N)[C@H]1O[C@@H](O[C@@H]2[C@@H](O)[C@H](N)C[C@H](N)[C@H]2O[C@H]2O[C@H]([C@@H](C)O)[C@@H](O)[C@H](O)[C@H]2N)[C@H](O)[C@@H]1O,rabbit ribosome,"translation, inhibitor, refers to: firefly luciferase",rabbit reticulocyte lysate,,1500 ± 80 nM
CCc1ccc(Cn2cc(-c3cc(-c4ccc(Br)cc4)nc(N)n3)c3ccccc32)cc1,c-MET,inhibitor,,,595 nM
